Assay results collected from several papers.
Each numbered part is a random draw from the data of one study; scales do not carry over between parts. Several values in a cell are separate wells, animals, samples, runs or records.
Sequence of UniProt Q9UPZ9 (whole entry, looked up): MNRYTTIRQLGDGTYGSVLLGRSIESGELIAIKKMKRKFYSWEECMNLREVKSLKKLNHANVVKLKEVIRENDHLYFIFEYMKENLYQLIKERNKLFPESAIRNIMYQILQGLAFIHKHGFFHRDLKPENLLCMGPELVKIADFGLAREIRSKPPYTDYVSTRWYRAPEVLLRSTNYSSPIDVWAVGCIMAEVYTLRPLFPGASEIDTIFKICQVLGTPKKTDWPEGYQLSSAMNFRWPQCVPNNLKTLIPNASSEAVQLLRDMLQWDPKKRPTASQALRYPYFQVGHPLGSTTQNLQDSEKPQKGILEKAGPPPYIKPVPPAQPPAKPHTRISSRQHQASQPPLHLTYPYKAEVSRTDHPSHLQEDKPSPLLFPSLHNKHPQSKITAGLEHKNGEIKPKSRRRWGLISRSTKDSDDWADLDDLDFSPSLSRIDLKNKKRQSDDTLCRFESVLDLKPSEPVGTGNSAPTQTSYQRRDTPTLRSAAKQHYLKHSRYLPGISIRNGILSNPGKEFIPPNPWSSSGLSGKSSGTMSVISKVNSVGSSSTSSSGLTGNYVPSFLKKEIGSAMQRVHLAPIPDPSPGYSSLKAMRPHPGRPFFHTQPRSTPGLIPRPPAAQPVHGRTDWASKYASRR
Sequence of UniProt P52564 (whole entry, looked up): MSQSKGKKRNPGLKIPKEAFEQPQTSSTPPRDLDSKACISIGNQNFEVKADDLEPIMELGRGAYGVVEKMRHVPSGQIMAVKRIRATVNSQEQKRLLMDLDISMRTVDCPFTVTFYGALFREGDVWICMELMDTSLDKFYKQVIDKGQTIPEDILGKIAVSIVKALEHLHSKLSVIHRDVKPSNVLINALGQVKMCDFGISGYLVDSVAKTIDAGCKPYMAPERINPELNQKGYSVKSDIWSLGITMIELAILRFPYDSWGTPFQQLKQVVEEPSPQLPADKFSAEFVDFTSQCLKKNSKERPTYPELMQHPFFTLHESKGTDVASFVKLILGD
Sequence of UniProt Q9UQB9 (whole entry, looked up): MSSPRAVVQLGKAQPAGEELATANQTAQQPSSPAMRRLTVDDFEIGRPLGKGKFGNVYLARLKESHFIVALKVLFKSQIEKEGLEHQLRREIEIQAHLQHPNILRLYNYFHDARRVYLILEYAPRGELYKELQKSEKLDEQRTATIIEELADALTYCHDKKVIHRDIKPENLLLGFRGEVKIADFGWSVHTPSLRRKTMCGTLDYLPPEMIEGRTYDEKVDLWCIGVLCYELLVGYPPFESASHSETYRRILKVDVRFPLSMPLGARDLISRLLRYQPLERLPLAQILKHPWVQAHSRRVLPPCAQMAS
Sequence of UniProt P42336 (whole entry, unmodified, looked up): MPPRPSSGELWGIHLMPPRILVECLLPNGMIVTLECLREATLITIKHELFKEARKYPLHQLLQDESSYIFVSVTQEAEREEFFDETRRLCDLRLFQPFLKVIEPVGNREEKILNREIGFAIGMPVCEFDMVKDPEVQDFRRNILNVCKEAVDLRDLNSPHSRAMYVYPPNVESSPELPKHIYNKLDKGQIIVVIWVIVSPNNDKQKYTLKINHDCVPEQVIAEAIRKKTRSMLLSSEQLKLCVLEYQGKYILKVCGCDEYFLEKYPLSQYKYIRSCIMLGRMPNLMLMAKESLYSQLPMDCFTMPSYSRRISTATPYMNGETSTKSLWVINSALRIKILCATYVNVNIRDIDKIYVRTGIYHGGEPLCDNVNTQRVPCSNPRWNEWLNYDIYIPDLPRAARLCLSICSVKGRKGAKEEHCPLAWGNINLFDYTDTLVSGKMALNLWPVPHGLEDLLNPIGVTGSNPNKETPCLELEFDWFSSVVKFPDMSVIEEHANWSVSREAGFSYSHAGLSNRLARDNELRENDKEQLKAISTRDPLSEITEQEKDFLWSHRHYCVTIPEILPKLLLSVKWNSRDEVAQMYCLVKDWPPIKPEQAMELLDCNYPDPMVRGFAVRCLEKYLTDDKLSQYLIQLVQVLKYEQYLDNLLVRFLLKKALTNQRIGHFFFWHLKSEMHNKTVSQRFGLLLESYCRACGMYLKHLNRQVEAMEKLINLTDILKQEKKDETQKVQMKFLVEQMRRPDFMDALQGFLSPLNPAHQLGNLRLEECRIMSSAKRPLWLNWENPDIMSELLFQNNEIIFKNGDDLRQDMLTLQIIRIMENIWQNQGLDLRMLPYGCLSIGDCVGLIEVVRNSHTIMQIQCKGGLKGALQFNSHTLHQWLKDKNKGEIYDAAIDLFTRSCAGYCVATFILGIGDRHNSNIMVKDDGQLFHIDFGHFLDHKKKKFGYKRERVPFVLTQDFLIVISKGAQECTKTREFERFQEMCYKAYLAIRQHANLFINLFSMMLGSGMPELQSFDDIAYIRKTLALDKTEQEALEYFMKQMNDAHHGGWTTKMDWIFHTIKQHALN
Sequence of UniProt P52333 (whole entry, looked up): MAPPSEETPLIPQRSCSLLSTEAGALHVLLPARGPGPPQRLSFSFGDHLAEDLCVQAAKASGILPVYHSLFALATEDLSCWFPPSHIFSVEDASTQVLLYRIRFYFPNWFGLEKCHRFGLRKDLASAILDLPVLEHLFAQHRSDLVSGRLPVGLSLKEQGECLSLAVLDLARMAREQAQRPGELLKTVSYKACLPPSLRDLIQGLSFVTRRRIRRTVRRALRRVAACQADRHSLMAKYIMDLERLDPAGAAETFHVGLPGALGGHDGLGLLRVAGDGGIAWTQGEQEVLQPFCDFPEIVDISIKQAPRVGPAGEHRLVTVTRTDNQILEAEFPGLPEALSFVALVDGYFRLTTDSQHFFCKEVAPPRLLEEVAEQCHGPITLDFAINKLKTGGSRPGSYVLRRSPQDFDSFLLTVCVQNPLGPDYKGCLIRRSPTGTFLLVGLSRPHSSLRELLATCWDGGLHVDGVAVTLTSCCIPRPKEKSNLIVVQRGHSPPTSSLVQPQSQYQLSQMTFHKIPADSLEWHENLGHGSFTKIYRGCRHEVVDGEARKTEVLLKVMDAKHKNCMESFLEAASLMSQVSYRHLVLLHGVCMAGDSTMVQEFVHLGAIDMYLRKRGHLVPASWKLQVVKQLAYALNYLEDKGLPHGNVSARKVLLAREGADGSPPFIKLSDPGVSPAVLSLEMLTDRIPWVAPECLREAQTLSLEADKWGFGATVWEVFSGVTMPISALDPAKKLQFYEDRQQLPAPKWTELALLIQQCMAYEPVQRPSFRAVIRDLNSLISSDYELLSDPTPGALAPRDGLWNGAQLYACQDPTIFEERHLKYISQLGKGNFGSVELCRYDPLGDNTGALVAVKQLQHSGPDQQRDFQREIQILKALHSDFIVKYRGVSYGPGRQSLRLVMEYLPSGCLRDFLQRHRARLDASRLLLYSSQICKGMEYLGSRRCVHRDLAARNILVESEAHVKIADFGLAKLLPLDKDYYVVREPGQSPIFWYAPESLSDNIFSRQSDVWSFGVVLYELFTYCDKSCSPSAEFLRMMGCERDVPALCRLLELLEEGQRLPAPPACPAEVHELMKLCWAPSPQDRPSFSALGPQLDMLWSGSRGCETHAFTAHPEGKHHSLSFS

Block 1 — read-out: binding; technique: HTRF; measurement: inhibition
SMILES: Cc1ncc(-c2cc3c(C(N)=O)c(-c4c(C)ccc(O)c4C)cnc3[nH]2)cn1
Target: Membrane-associated tyrosine- and threonine-specific cdc2-inhibitory kinase (PKMYT1, Homo sapiens, UniProt Q99640)
Residues (Q99640 1-499): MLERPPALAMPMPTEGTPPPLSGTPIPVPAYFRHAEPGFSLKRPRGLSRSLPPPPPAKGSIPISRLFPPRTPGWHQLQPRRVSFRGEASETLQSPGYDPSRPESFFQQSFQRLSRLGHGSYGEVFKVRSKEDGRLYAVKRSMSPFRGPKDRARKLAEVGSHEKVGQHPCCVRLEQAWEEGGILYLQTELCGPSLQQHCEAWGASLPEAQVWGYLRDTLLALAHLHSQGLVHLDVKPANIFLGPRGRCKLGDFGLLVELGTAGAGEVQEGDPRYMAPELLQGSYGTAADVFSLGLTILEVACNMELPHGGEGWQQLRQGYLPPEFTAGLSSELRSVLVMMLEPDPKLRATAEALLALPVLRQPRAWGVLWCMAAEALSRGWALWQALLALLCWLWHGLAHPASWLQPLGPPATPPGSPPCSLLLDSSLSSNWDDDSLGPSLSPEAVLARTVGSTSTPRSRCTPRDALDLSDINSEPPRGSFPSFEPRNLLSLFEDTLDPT
10000 nM: 99.4% and 99.8%
13.72 nM: -4.52% and 0.35%
4.57 nM: -11.1% and -12.5%
1.52 nM: -15.2% and -14.4%
370.37 nM: 73.1% and 74.4%
123.46 nM: 43.8% and 45.6%
41.15 nM: 12.9% and 12.3%
3333.33 nM: 97.1% and 94.3%

Block 2 — tested at: 1 µM; measurement: remaining binding
SMILES: CC[C@@]1(c2cccc(-c3c(F)cncc3OC)c2)C2=C(Nc3n[nH]cc31)[C@H](F)C(C)(C)CC2=O (single isomer, unassigned)
Casein kinase I isoform gamma-1 (CSNK1G1, Homo sapiens, UniProt Q9HCP0); binding, competition with immobilised ligand: 81%
Homeodomain-interacting protein kinase 3 (HIPK3, Homo sapiens, UniProt Q9H422); kinase binding, KINOMEscan; reference: DMSO control: 66%
Aurora kinase C (AURKC, Homo sapiens, UniProt Q9UQB9); kinase binding, KINOMEscan; reference: DMSO control: 61%
Tyrosine-protein kinase Srms (SRMS, Homo sapiens, UniProt Q9H3Y6); binding, competition with immobilised ligand: 69%
Muscle, skeletal receptor tyrosine-protein kinase (MUSK, Homo sapiens, UniProt O15146); binding, competition with immobilised ligand: 93%
Phosphatidylinositol 4,5-bisphosphate 3-kinase catalytic subunit alpha isoform (PIK3CA, Homo sapiens, UniProt P42336, E542K); binding, competition with immobilised ligand: 66%
Atypical kinase COQ8B, mitochondrial (COQ8B, Homo sapiens, UniProt Q96D53); binding, competition with immobilised ligand: 100%
Receptor-interacting serine/threonine-protein kinase 4 (RIPK4, Homo sapiens, UniProt P57078); binding, competition with immobilised ligand: 66%
FLT3 ITD/D835V, human; KINOMEscan: 69%
Dual specificity mitogen-activated protein kinase kinase 2 (MAP2K2, Homo sapiens, UniProt P36507); binding, competition with immobilised ligand: 83%
Serine/threonine-protein kinase ICK (CILK1, Homo sapiens, UniProt Q9UPZ9); binding, competition with immobilised ligand: 15%
Death-associated protein kinase 1 (DAPK1, Homo sapiens, UniProt P53355); binding, competition with immobilised ligand: 100%
Mitogen-activated protein kinase 4 (MAPK4, Homo sapiens, UniProt P31152); binding, competition with immobilised ligand: 100%
Glycogen synthase kinase-3 alpha (GSK3A, Homo sapiens, UniProt P49840); binding, competition with immobilised ligand: 0%
Membrane-associated tyrosine- and threonine-specific cdc2-inhibitory kinase (PKMYT1, Homo sapiens, UniProt Q99640); binding, competition with immobilised ligand: 100%
Dual specificity mitogen-activated protein kinase kinase 6 (MAP2K6, Homo sapiens, UniProt P52564); kinase binding, KINOMEscan; reference: DMSO control: 95%
Tyrosine-protein kinase JAK3, JH1 (JAK3, Homo sapiens, UniProt P52333); binding, competition with immobilised ligand: 64%
Cyclin-dependent kinase 18 (CDK18, Homo sapiens, UniProt Q07002); binding, competition with immobilised ligand: 71%

Block 3 — read-out: thermal unfolding; technique: differential scanning fluorimetry; tested at: 5.5 µM; direction: higher = more unfolded; measurement: SYPRO Orange fluorescence
SMILES: C[C@@H]1CN(c2ccc(-c3cc(C(=O)NCCOCCOCCOCCOCCNC(=O)Cn4cc(-c5[nH]cc(C(=O)N[C@@H](CC(N)=O)c6ccc(F)c(Cl)c6)c5-c5ccc(Cl)cc5F)cn4)ccc3F)cc2NC(=O)c2c[nH]c(=O)cc2C(F)(F)F)C[C@H](C)N1C
DCAF1: DDB1- and CUL4-associated factor 1 (DCAF1, Homo sapiens, UniProt Q9Y4B6)
Sequence of UniProt Q9Y4B6 (whole entry, looked up): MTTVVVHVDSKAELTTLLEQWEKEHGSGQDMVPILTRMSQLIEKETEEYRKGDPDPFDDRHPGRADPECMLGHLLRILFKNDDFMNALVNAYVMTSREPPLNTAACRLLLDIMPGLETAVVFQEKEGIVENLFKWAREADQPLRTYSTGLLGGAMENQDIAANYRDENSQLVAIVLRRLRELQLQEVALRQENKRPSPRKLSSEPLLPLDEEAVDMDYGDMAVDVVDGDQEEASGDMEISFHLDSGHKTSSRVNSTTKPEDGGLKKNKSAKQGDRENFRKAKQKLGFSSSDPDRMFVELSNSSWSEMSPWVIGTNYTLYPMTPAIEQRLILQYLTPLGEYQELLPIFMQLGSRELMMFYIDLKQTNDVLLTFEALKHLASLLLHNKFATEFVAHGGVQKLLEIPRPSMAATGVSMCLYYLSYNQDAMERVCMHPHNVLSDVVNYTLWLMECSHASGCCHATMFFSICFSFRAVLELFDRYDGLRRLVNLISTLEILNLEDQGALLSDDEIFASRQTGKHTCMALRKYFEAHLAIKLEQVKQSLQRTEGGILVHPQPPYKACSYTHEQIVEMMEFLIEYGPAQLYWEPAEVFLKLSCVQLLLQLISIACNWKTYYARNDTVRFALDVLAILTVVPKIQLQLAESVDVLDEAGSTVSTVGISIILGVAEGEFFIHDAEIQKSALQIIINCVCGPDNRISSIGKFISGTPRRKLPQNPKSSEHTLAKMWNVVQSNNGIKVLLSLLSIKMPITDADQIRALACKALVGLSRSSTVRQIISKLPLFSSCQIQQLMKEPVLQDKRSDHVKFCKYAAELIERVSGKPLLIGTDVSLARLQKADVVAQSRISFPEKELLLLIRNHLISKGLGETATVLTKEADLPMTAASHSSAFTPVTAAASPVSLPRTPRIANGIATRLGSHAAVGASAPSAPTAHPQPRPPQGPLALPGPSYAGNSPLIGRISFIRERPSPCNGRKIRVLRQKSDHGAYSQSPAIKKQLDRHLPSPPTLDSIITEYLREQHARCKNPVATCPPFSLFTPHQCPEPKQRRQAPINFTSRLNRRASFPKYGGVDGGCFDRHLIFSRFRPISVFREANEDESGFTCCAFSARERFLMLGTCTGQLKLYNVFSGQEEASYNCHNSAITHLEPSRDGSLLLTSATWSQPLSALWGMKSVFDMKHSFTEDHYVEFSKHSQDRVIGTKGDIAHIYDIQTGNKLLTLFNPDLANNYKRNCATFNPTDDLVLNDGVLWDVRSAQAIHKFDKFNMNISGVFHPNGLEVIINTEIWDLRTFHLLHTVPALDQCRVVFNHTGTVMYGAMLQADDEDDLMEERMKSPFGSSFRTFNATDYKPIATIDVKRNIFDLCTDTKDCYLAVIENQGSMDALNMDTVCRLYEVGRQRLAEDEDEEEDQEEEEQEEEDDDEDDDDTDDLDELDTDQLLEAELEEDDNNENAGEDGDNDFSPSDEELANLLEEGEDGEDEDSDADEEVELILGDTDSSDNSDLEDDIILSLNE
DCAF1; 85.61 °C: 39100 a.u.
DCAF1; 63.61 °C: 53300 a.u.
WD repeat-containing protein 5 (WDR5, Homo sapiens, UniProt P61964); 35.2 °C: 14300 a.u.
DCAF1; 86.61 °C: 38200 a.u.
DCAF1; 68.41 °C: 55800 a.u.
DCAF1; 93.01 °C: 32100 a.u.
DCAF1; 32.6 °C: 8260 a.u.
DCAF1; 90.61 °C: 34500 a.u.
DCAF1; 50.8 °C: 15100 a.u.
DCAF1; 45.8 °C: 12500 a.u.
DCAF1; 40.8 °C: 10700 a.u.

Block 4 — measurement: body weight
Compound: Cc1ncsc1-c1ccc(C(CO)NC(=O)C2CC(O)CN2C(=O)C(C(C)C)n2cc(-c3ccc(COc4c(-c5c(C)c(F)cc6[nH]ncc56)c(C5CC5)cc5c(N6CC7CC6CN7)nc(OC6CCOCC6)nc45)cc3)nn2)cc1 (centres unmarked)
mouse, HT-29 xenograft; sc, 30 mg/kg once daily, day 13: 20 g and 19.1 g and 21.5 g and 17 g and 18.5 g
mouse, A-375 xenograft; sc, 30 mg/kg once daily, day 10: 18.1 g and 18.5 g and 20.4 g and 19.1 g and 18.9 g
mouse, PK-59 xenograft; subcutaneous, 30 mg/kg once daily, day 8: 20.6 g and 19.4 g and 18.7 g and 21.8 g
mouse, PK-59 xenograft; 1 mg/kg, day 21: 26 g and 32.3 g
mouse, PK-59 xenograft; subcutaneous, 30 mg/kg once daily, day 18: 20 g and 19.7 g and 18.4 g and 18 g
mouse, A-375 xenograft; sc, 30 mg/kg once daily, day 13: 19.2 g and 18.3 g and 19.3 g and 20.4 g and 18.1 g
mouse, PK-59 xenograft; 30 mg/kg, day 0: 25.2 g and 23.4 g and 21.9 g and 24.8 g and 24.4 g
mouse, lung LXFA sample B PDX; 30 mg/kg twice weekly, day 18: 25.4 g and 27 g
mouse, PK-59 xenograft; 30 mg/kg, day 14: 26 g and 24.2 g and 26.1 g
mouse, PK-59 xenograft; 30 mg/kg, day 17: 26.3 g and 23 g and 24.3 g and 24.8 g
